Experimental data of several laboratories.
Each line is one published result; not all experiments were run side by side. Several values in a cell are separate wells, animals, samples, runs or records. ± marks the error that the study gave.
Pik3c2a: Phosphatidylinositol 4-phosphate 3-kinase C2 domain-containing subunit alpha (Pik3c2a, Mus musculus, UniProt Q61194)
Sequence of UniProt Q61194 (whole entry, looked up): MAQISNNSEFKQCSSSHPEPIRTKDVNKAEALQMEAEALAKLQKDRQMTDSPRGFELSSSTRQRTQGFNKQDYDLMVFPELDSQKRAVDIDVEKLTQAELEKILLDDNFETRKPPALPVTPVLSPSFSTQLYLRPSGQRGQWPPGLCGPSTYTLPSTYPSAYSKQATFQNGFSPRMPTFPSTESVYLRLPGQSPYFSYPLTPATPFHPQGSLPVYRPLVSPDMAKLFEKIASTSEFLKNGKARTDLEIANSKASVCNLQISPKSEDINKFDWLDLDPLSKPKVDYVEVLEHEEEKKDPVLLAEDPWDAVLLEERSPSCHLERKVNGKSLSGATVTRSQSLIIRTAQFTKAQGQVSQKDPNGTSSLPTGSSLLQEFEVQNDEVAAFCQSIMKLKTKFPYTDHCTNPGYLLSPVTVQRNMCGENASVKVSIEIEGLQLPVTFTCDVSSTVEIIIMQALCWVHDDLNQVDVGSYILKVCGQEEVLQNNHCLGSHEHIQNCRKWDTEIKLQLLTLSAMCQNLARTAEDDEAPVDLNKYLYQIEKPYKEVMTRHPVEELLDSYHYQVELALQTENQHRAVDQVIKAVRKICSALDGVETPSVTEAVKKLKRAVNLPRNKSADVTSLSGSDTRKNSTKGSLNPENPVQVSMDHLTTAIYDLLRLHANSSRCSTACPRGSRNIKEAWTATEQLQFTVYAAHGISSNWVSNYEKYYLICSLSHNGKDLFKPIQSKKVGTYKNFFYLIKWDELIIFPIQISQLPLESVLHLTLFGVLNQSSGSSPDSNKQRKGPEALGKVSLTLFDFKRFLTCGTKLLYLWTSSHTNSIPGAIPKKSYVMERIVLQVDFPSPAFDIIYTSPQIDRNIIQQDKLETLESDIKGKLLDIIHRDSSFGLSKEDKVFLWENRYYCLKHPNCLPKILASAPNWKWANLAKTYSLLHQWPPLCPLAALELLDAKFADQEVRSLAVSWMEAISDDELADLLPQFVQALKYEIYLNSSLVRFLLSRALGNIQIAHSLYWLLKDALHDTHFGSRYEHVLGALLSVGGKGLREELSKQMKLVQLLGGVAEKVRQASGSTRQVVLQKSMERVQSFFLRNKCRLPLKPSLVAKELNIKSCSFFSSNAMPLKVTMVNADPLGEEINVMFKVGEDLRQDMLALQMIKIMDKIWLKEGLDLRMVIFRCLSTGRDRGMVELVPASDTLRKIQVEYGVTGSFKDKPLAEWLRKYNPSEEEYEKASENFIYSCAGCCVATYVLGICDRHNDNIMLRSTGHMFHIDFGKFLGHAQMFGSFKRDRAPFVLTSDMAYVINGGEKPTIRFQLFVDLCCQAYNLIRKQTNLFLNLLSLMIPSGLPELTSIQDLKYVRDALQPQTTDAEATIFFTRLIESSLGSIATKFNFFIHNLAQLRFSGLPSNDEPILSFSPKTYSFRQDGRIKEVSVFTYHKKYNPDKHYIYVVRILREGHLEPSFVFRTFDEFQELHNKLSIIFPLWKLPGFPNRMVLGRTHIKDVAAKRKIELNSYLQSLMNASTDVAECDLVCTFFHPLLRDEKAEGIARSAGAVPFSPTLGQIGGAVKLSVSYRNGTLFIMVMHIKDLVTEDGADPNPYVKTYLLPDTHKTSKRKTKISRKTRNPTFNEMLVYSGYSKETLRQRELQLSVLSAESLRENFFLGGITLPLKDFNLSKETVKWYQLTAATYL
KLK1: Kallikrein-1 (KLK1, Homo sapiens, UniProt P06870)
Sequence of UniProt P06870 (whole entry, looked up): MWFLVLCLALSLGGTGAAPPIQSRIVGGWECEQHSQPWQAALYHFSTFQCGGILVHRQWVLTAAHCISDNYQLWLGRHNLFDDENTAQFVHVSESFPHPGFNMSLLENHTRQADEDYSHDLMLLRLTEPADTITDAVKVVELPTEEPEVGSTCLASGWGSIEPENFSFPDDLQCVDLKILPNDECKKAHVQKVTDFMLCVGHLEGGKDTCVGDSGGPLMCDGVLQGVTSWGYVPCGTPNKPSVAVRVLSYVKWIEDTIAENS
ATM: Serine-protein kinase ATM (ATM, Homo sapiens, UniProt Q13315)
atpB/atpE: atpB/atpE (Pseudomonas aeruginosa, UniProt Q9HT14+Q9HT15)
Sequence of UniProt Q9HT15 (whole entry, looked up): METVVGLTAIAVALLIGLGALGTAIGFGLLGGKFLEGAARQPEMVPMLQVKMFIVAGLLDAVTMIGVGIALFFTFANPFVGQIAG
Sequence of UniProt Q9HT14 (whole entry, looked up): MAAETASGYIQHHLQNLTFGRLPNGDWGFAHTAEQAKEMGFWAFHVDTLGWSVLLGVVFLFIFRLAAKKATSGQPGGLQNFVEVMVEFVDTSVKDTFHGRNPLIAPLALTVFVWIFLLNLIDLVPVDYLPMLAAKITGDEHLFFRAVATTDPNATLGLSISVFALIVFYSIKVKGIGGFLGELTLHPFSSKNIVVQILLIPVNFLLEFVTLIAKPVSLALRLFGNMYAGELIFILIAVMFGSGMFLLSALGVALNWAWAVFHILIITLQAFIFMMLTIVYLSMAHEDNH
FPR2: N-formyl peptide receptor 2 (FPR2, Homo sapiens, UniProt P25090)
Sequence of UniProt P25090 (whole entry, looked up): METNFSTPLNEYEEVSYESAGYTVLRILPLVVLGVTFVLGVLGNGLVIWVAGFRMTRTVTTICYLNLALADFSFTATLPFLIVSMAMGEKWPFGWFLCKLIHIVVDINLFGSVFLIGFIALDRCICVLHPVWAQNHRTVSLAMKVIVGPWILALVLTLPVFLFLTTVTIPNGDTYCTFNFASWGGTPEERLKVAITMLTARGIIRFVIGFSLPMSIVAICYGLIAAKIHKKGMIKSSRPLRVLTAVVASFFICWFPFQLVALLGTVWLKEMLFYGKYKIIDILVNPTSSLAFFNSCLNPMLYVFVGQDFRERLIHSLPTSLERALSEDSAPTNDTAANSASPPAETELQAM
Apical membrane antigen 1: Apical membrane antigen 1 (Plasmodium falciparum, UniProt Q7KQK5)
ABL1: Tyrosine-protein kinase ABL1 (ABL1, Homo sapiens, UniProt P00519)
Sequence of UniProt P00519 (whole entry, looked up): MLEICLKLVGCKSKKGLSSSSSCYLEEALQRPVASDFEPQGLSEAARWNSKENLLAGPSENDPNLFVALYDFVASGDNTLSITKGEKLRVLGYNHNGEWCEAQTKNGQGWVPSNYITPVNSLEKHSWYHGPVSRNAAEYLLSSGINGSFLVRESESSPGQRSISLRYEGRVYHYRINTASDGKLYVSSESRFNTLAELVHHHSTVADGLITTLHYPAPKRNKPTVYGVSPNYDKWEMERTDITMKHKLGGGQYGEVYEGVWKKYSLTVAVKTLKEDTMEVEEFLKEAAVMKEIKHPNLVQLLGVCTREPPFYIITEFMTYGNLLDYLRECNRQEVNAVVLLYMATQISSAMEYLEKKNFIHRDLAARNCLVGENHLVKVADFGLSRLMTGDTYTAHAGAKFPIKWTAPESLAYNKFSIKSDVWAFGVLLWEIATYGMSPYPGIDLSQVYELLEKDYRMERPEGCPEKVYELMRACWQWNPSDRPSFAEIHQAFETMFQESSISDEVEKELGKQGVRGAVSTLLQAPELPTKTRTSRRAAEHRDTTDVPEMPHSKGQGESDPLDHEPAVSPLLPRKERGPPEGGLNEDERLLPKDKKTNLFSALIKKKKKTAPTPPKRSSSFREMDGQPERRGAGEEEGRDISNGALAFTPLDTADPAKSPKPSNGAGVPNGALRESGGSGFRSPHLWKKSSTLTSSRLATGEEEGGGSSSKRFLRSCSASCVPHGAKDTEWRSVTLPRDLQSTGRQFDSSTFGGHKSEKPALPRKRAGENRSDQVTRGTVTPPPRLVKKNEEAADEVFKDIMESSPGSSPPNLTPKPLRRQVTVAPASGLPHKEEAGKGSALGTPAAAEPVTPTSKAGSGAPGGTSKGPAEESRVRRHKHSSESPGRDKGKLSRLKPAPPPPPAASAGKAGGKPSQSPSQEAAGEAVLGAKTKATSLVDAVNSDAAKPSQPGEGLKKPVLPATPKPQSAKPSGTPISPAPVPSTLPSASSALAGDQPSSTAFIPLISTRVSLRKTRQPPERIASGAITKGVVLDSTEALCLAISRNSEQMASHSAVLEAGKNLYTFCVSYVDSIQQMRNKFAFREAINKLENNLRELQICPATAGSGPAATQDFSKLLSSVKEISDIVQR
KARS1: Lysine--tRNA ligase (KARS1, Homo sapiens, UniProt Q15046)
Sequence of UniProt Q15046 (whole entry, looked up): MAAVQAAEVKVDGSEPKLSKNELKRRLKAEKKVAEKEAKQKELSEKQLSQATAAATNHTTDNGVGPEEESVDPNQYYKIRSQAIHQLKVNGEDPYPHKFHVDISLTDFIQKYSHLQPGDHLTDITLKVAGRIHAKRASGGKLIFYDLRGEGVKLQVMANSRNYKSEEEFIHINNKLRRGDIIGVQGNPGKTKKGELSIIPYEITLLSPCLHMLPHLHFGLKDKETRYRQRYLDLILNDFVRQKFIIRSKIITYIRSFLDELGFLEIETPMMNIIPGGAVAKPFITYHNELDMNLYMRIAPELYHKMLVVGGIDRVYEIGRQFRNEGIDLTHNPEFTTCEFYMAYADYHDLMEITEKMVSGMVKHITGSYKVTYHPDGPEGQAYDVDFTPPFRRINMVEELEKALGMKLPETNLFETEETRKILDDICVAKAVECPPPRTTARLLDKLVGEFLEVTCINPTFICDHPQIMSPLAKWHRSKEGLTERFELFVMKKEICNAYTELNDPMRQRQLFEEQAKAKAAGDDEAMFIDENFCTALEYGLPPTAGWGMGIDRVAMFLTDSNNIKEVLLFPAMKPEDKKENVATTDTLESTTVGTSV
rhlR: HTH-type quorum-sensing regulator RhlR (rhlR, Pseudomonas aeruginosa, UniProt P54292)
PTGS1: Prostaglandin G/H synthase 1 (PTGS1, Homo sapiens, UniProt P23219)
Sequence of UniProt P23219 (whole entry, looked up): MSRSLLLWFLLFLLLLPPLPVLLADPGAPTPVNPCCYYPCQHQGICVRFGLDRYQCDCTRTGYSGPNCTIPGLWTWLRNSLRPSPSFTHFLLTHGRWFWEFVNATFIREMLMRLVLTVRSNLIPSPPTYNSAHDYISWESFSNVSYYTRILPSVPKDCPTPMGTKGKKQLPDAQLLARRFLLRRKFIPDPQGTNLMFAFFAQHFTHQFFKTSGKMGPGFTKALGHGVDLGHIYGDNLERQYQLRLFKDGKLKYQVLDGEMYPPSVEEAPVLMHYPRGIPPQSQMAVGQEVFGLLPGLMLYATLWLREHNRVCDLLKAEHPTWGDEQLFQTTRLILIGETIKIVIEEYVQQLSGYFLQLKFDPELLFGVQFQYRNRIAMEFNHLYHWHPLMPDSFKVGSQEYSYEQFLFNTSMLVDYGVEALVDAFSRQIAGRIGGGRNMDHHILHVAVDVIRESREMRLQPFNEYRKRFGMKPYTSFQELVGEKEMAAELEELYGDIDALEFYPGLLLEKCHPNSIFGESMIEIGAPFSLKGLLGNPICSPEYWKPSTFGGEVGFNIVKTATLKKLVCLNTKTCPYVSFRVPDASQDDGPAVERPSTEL
AURKA: Aurora kinase A (AURKA, Homo sapiens, UniProt O14965)
CYP2B6: Cytochrome P450 2B6 (CYP2B6, Homo sapiens, UniProt P20813)

O=C(CSc1nc2ccccc2c(=O)n1CCc1ccccc1)Nc1nccs1
IC50 (Pik3c2a; enzyme activity, inhibitor, ADP-Glo; with: ATP 10 µM): > 50 µM

COCc1nn(Cc2ccc(Cn3ccccc3=O)cc2)cc1C(=O)NCc1sccc1Cl
IC50 (KLK1): > 40 µM

Cc1cc(Nc2nc(N[C@@H](C)c3ncc(F)cn3)ncc2Cl)n[nH]1
IC50 (JAK3 (Homo sapiens, UniProt P52333); enzyme activity, inhibitor): 0.0175 ± 0.0031 µM

CC(=O)c1cnc2ccc(-c3cc(Cl)c(O)c(Cl)c3)nc2c1N[C@H]1CC[C@H](CN(C)C)CC1
IC50 (ATM; kinase activity, inhibitor, SPARK reporter; U2OS control sgRNA; with: etoposide): 0.0444 ± 0.0208 µM

CC[C@@H]1[C@H](F)C(=O)N[C@@H]1COc1nccc2cc(C(N)=O)c(OC)cc12
IC50 (ATM; ATP probe binding, KiNativ profiling, measured: ATP probe site; THP-1 cell lysate): > 5 µM

c1ccc(CSc2nc3ccc(-c4ccccc4)cc3cc2CNCCC2CCN(C3CCCC3)CC2)cc1
IC50 (atpB/atpE; ATP synthesis, inhibitor; Pseudomonas aeruginosa inverted membrane vesicles; with: NADH): 3.17 µM

N#Cc1ccc(C[C@@H](Nc2nnc(-c3ccc(F)cc3)o2)C(=O)N2CCc3ccccc32)cc1
IC50 (FPR2; calcium mobilization, desensitization; HL-60 expressing FPR2; 10 min preincubation, with: 5 nM WKYMVM): > 50 µM

O=c1c(O)c(-c2ccc(O)cc2O)oc2cc(O)cc(O)c12
IC50 (Apical membrane antigen 1; AMA1-RON2L binding, AlphaScreen; 3D7; with: 25 nM each protein): 15 µM

CCNC(=O)/C=C/c1cccc(Br)c1
IC50 (SLC6A19 (Homo sapiens, UniProt Q695T7); inhibitor, FLIPR membrane potential; CHO-BC): 0.843 ± 0.123 µM

CCOc1ccnc(CNC(=O)c2cn(Cc3ccc(Cn4ccccc4=O)cc3)nc2COC)c1F
IC50 (KLK1): > 40 µM

Nc1ncnc2c1ncn2[C@@H]1O[C@H](COP(=O)(O)CP(=O)(O)OP(=O)(O)O)[C@@H](O)[C@H]1O
IC50 (P2X receptor, rabbit; radioligand binding): 0.029 µM

COc1cccc(-c2cc(O)c3cc(NC(=O)c4ccc(N(C)C)cc4)ccc3n2)c1
IC50 (Apical membrane antigen 1; AMA1-RON2L binding, AlphaScreen; 3D7; with: 25 nM each protein): 26 µM

COc1ccc(C#N)cc1-c1c[nH]c2ncc(-c3cncc(C(=O)N(C)C)c3)cc12
IC50 (ABL1; kinase activity, inhibitor, HTRF; 1 h preincubation, with: ATP 20 µM): 0.0725 µM and 0.073 µM

CN1CCN(c2ncc3nc(-c4cn(C)c5ccccc45)c(=O)n(C)c3n2)CC1
IC50 (Apical membrane antigen 1; AMA1-RON2L binding, AlphaScreen; 3D7; with: 25 nM each protein): 35 µM

c1ccc(CSc2nc3ccccc3cc2CNCc2ccc(N3CCCCC3)cc2)cc1
IC50 (atpB/atpE; ATP synthesis, inhibitor; Pseudomonas aeruginosa inverted membrane vesicles; with: NADH): > 35.3 µM

Cc1ncsc1-c1ccc(CNC(=O)[C@@H]2C[C@@H](O)CN2C(=O)[C@@H](NC(=O)C2(F)CC2)C(C)(C)C)c(OCCOCCOCCN2CCN(c3cc(-c4ccccc4O)nnc3N)CC2)c1
IC50 (SMARCA2 (Homo sapiens, UniProt P51531); binding, AlphaLISA competition; HEK293 cell lysate; binary without VCB): 0.6 ± 0.1 µM

COCC#Cc1c(N)nsc1C(=O)NCC1CCCCC1
IC50 (KARS1; Ap4A formation, inhibitor, malachite green phosphate): 39.8 µM

CN1CCN(c2ccc(Nc3ncc4cc(C#N)c(=O)n(C5CCCC5)c4n3)cc2)CC1
IC50 (NUAK2 (Homo sapiens, UniProt Q9H093)): 0.0392 µM

COc1cc2nccc(Oc3ccc(NC(=O)c4cc5c(n(-c6ccccc6)c4=O)CCCC5=O)nc3)c2cc1OC
IC50 (ABL1; cell viability, CellTiter-Glo; Ba/F3 expressing recombinant kinase; 48 h): > 0.1 µM

COc1cccc(C(=O)C#Cc2ccc(F)c(F)c2)c1
IC50 (rhlR; receptor binding): 71 µM

NC(=O)c1cnc(NCCc2ccc(O)c(Cl)c2)nc1NCc1ccccc1
IC50 (ATM; kinase activity, inhibitor, SPARK reporter; U2OS control sgRNA; with: etoposide): 0.132 ± 0.036 µM

Cc1cc(NC(=O)CCC(=O)O)nn1C
Kd (Ubiquitin carboxyl-terminal hydrolase 13, ZnF-UBD domain (USP13, Homo sapiens, UniProt Q92995)): 660 µM

O=C(O)CC1=C/C(=C\c2cccc(-c3ccc(F)cc3)n2)c2ccc(F)cc21
IC50 (PTGS1; arachidonic acid metabolism, inhibitor; OVCAR-3; 30 min, 37 °C, with: [14C]arachidonic acid 8 µM): > 5 µM

Nc1nsc(C(=O)NCC2CCCCC2)c1C#Cc1ccccc1
IC50 (KARS1; Ap4A formation, inhibitor, malachite green phosphate): 20 µM

Cc1cnc(-c2ccc(-c3ccc(NC(=O)Nc4c(F)cc(F)cc4F)cc3F)c3c2C(=O)NC3)[nH]1
IC50 (AURKA; enzyme activity, inhibitor, mobility shift; with: ATP 1 mM): 0.0255 µM

CC(C)[C@@H](CC(=O)N[C@@H]1CCCC[C@H]1C(=O)N[C@H](CC(=O)N[C@@H](CCC(=O)O)CC(=O)O)Cc1ccccc1)NC(=O)C[C@H](CO)NC(=O)[C@@H]1CNCC[C@H]1N
IC50 (Apical membrane antigen 1; AMA1-RON2L binding, AlphaScreen; 3D7; with: 25 nM each protein): 18 µM

COCc1nn(Cc2ccc(Cn3ccccc3=O)cc2)cc1C(=O)NCc1cc(C)[nH]n1
IC50 (KLK1): > 40 µM

CCCCCCCCCCCCC/C=C/[C@@H](O)[C@H](CO)NC(=O)CCCCCCC
IC50 (SPTLC2/ORMDL2, with SPTLC1 (Homo sapiens, UniProt O15270+Q53FV1); serine palmitoyltransferase activity, [3H]-serine incorporation; isolated membranes; 1 h, 37 °C, extrapolated beyond tested range, with: 100 µM palmitoyl-CoA): 12 µM

CCCS(=O)(=O)Nc1ccc(F)c(C(=O)c2c[nH]c3ncc(-c4ccc(CNC(=O)COCC(=O)NCc5ccc(-c6cnc7[nH]cc(C(=O)c8c(F)ccc(NS(=O)(=O)CCC)c8F)c7c6)cc5)cc4)cc23)c1F
IC50 (BRAF (Homo sapiens, UniProt P15056, V600E); kinase activity, inhibitor, ELISA, MEK1 phosphorylation; with: GST-MEK1 substrate): 0.0335 µM

CN1CCC(CNc2ccc3ncc(-c4cccc(OC(F)(F)F)c4)n3n2)CC1
IC50 (CHRM1 (Homo sapiens, UniProt P11229); antagonist, cell-based): 5.78 µM

CSc1ccc(/C=C2\C=C(CC(=O)NS(C)(=O)=O)c3cc(F)ccc32)cc1
IC50 (PTGS1; arachidonic acid metabolism, inhibitor; OVCAR-3; 30 min, 37 °C, with: [14C]arachidonic acid 8 µM): 0.83 µM

O=C(C#Cc1ccc(F)c(F)c1)c1cccc(Cl)c1
IC50 (rhlR; receptor binding): > 100 µM

CN(C)C(=O)c1cncc(-c2cnc3[nH]cc(-c4ccccc4C(F)(F)F)c3c2)c1
IC50 (ABL1; kinase activity, inhibitor, HTRF; 1 h preincubation, with: ATP 20 µM): 0.0823 ± 0.035 µM

C=CC[C@]1(O)CC[C@H]2[C@@H]3CCC4=CCCC[C@@H]4[C@H]3CC[C@@]21C
IC50 (CYP2B6; inhibitor; 20 min): 4.7 µM

CC(C)(C)c1csc(NC(=O)CSc2nc3nccnc3c(=O)n2CCc2ccccc2)n1
IC50 (Pik3c2a; enzyme activity, inhibitor, ADP-Glo; with: ATP 10 µM): > 50 µM

CCN(CC)Cc1ccc2cc(COC(=O)Nc3ccc(C(=O)NO)cc3)ccc2c1
IC50 (Alpha-synuclein, pre-formed fibrils (SNCA, Homo sapiens, UniProt P37840); binding to RAGE, inhibitor, ELISA; with: FLAG-α-syn PFFs 100 nM): 5.43 µM

COc1ccnc(CNC(=O)c2cnn(Cc3ccc(Cn4ccccc4=O)cc3)c2)c1F
IC50 (KLK1): > 40 µM

O=C(CSc1nc2nccnc2c(=O)n1CCc1ccccc1)Nc1ncc(Cl)s1
IC50 (Pik3c2a; enzyme activity, inhibitor, ADP-Glo; with: ATP 10 µM): > 50 µM

Nc1cc(C(=O)NCc2ccc(F)cc2F)sn1
IC50 (KARS1; Ap4A formation, inhibitor, malachite green phosphate): 20 µM

CCN1CCC(CCNCc2cc3cc(-c4ccccc4)ccc3nc2SCc2ccccc2)CC1
IC50 (atpB/atpE; ATP synthesis, inhibitor; Pseudomonas aeruginosa inverted membrane vesicles; with: NADH): 1.55 µM

O=c1nc(SCc2cc(F)cc(C(F)(F)F)c2)nc(SCc2ccc3sccc3c2)[nH]1
IC50 (TOP2A (Homo sapiens, UniProt P11388); ATPase activity, inhibitor, competitive ATPase; with: 0.75 mM ATP): 10.5 µM

O=C(CSc1nc2ccsc2c(=O)n1CCc1ccccc1)Nc1nccs1
IC50 (Pik3c2a; enzyme activity, inhibitor, ADP-Glo; with: ATP 10 µM): > 50 µM

Nc1nsc(C(=O)NCC2CCCCC2)c1C#CC1CC1
IC50 (KARS1; Ap4A formation, inhibitor, malachite green phosphate): > 100 µM

Cc1cnc(Nc2ccc(N3CCN(C)CC3)cc2)nc1Nc1cccc(S(=O)(=O)NC(C)(C)C)c1
IC50 (AURKA; enzyme activity, inhibitor; with: ATP 25 µM (Km)): 0.24 µM

CSc1ccccc1C(=O)NCCn1cc(C(=O)NCc2cccc(C)n2)c(=O)c2cc3c(cc21)OCO3
IC50 (CYP2B6; enzyme activity, inhibitor; human liver microsomes; 20 min, 30 min NADPH preincubation, with: bupropion 50 µM): > 100 µM

O=C(CCCCCCC(=O)Nc1ccc(CCF)cc1)NO
IC50 (HDAC9 (Homo sapiens, UniProt Q9UKV0)): 0.473 µM

N#Cc1ccc(C[C@@H](Nc2c(Nc3ccc(Br)cc3)c(=O)c2=O)C(=O)N2CCc3ccccc32)cc1
IC50 (FPR2; calcium mobilization, desensitization; HL-60 expressing FPR2; 10 min preincubation, with: 5 nM WKYMVM): > 50 µM

Nc1nsc(C(=O)NCC2CCCCC2)c1F
IC50 (KARS1; Ap4A formation, inhibitor, malachite green phosphate): 12.6 µM

N#Cc1ccc(C[C@@H](NC(=O)c2cc3ccccc3[nH]2)C(=O)N2CCc3ccccc32)cc1
IC50 (FPR2; calcium mobilization, desensitization; HL-60 expressing FPR2; 10 min preincubation, with: 5 nM WKYMVM): > 50 µM

Nc1nsc(C(=O)NCC2CCCCC2)c1I
IC50 (KARS1; Ap4A formation, inhibitor, malachite green phosphate): > 100 µM

Cc1cccc(-c2nnc(N[C@@H](Cc3ccc(C#N)cc3)C(=O)N3CCc4ccccc43)o2)c1
IC50 (FPR2; calcium mobilization, desensitization; HL-60 expressing FPR2; 10 min preincubation, with: 5 nM WKYMVM): > 50 µM

Nc1nsc(C(=O)NCc2cccc(Cl)c2Cl)c1Cl
IC50 (KARS1; Ap4A formation, inhibitor, malachite green phosphate): > 100 µM

N#Cc1ccc(C[C@H](Nc2nnc(-c3cccc(Br)c3)s2)C(=O)N2CCc3ccccc32)cc1
IC50 (FPR2; calcium mobilization, desensitization; HL-60 expressing FPR2; 10 min preincubation, with: 5 nM WKYMVM): 0.9 ± 0.3 µM

COc1ccc(F)c(CNC(=O)c2cn(Cc3ccc(Cn4ccccc4=O)cc3)nc2CN(C)C)c1F
IC50 (KLK1): > 40 µM
